Experimental data pooled from the literature.
Parts stem from different laboratories: compare values within a part only.

Sample 1
Target: Max-binding protein MNT, bHLH-zipper, MAX partner unstated (MNT, Homo sapiens, UniProt Q99583, residues 220-300)
Technique: protein-binding microarray
Form: double-stranded DNA, one strand shown
Matrix: in vitro
Concentration: not given
Setting: k-mer, scored over probes, only values ≥0.25
Reading: higher = stronger binding
Construct (chain): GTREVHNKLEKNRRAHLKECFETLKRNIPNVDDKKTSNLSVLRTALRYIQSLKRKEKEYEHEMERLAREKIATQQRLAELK
Sequence | E-score
ATGTGCTA | 0.274
AGCCATGC | 0.372
ACGCTGCA | 0.298

Sample 2
Target: Histone acetyltransferase KAT6A, both winged helices, GST fusion (KAT6A, Homo sapiens, UniProt Q92794, residues 1-181)
Technique: protein binding microarray
Form: double-stranded DNA, one strand shown
Matrix: in vitro
Concentration: not given
Setting: 8-mer, flanks averaged, mean of 2 arrays, mostly near background
Reference: not given
Reading: higher = stronger binding
Residues (chain): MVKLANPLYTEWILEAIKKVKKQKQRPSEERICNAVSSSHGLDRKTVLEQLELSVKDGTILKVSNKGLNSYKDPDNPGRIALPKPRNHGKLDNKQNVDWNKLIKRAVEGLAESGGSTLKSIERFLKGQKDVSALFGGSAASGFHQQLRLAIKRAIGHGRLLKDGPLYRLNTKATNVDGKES
Sequence | E-score
CACATTAA | -0.177
CCTTCGCC | 0.00766
AGACAACA | -0.111
CGGCCAGA | 0.162
CCATCACG | 0.03
ACAATTTG | -0.0354
GAGACCCC | -0.0678

Sample 3
Target: Sal-like protein 4, full length isoform A (SALL4, Homo sapiens, UniProt Q9UJQ4, residues 1-1053)
Chain of UniProt Q9UJQ4 (whole entry, looked up): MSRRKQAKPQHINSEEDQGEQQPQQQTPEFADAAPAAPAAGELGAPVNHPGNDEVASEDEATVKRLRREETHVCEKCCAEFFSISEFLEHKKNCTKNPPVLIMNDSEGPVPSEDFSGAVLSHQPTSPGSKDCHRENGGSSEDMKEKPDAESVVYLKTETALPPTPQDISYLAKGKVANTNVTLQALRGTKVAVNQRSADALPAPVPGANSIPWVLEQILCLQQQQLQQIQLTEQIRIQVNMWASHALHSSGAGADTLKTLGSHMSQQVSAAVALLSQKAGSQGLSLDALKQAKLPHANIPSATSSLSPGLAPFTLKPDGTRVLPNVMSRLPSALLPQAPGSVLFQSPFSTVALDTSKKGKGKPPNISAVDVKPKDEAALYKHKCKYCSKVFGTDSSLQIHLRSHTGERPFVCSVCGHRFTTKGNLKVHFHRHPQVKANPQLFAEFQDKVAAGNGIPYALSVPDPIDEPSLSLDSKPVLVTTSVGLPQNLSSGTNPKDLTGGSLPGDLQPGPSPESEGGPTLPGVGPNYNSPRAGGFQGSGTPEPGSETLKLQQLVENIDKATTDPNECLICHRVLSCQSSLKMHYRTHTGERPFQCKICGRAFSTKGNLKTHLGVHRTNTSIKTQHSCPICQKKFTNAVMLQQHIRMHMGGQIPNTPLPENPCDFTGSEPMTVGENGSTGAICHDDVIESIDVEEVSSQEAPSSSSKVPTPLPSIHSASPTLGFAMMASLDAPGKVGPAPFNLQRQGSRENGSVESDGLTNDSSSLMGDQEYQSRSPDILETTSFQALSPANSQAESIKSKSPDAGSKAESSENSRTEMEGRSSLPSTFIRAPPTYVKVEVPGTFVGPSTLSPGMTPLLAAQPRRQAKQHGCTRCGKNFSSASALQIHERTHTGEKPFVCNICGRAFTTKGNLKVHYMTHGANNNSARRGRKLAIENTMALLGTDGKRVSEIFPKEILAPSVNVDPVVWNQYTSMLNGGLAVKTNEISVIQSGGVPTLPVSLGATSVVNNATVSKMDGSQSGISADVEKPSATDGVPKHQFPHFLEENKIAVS
Technique: universal PBM
Form: double-stranded DNA, one strand shown
Matrix: in vitro
Concentration: 600 nM
Setting: 8-mer, flanks averaged, mean of replicates
Reading: higher = stronger binding
Sequence | E-score
CGACGAAC | -0.133
CAGAGGAG | -0.117
AAGTTTCT | 0.196
ACATTTGA | 0.283
CCCTCACC | -0.314
GGGAACTA | -0.0781
ACGCATAG | -0.0155

Further values, each from its own experiment
Substance | target | assay | test system | conditions | how to read | endpoint | value
PhoQ, residues 284 288 289 292 302 303 GTAMQF | PhoP, residues 12 14 15 18 19 AYFRS (Escherichia coli, UniProt P23836) | Sort-seq, refers to: YFP reporter | E. coli | PhoQ-PhoP variant library, together with: 10 µM Mg2+ | reference: high Mg2+ state, higher = stronger signaling | fold induction | 18.7
